Assay results pooled from the literature.
Every numbered part comes from another study and shows a few of its results, in no order.

Sample 1
Target: Replicase polyprotein 1ab, polymerase (rep, Severe acute respiratory syndrome coronavirus 2, UniProt P0DTD1)
Read-out: enzyme activity
Action: inhibitor
Concentration: 20 µM
| SMILES | inhibition |
| --- | --- |
| CCCCOC(=O)c1ccc(N)cc1 | 18.8% |
| c1ccc(Cn2c(N3CCNCC3)nc3ccccc32)cc1 | -4.33% |
| N#Cc1cccc(C(=O)Nc2cc(-c3ccccc3)nn2-c2ccccc2)c1 | -1.65% |
| CCCCc1ccc2[nH]c(NC(=O)OC)nc2c1 | 1.78% |
| N[C@@H]1CCN(c2cccnc2)C1 | 5.44% |
| CCC(=O)N1CCN(c2ccc(-n3c(=O)ccc4cnc5ccc(-c6cnc7ccccc7c6)cc5c43)cc2C(F)(F)F)CC1 | 1.81% |
| CN[C@@H](C)C(=O)N[C@H](C(=O)N1CCC[C@H]1C(=O)Nc1snnc1-c1ccccc1)C1CCCCC1 | -9.15% |
| c1ccc(-c2n[nH]c3c2oc2ccccc23)cc1 | -5% |
| C=C(C)[C@@H]1CC=C(CO)CC1 | 2.5% |
| Cc1ccc(F)c(NC(=O)Nc2ccc(-c3cccc4[nH]nc(N)c34)cc2)c1 | 0.83% |
| CC(C)NCC(O)COc1cccc2[nH]c3ccccc3c12 (stereo not drawn) | 5.15% |
| CCC(O)(CC(N)=O)c1ccccc1 (stereo not drawn) | 10.1% |
| NC(=O)c1ccc(I)c([N+](=O)[O-])c1 | -5.71% |
| CC(C)/N=c1\cc2n(-c3ccc(Cl)cc3)c3ccccc3nc-2cc1Nc1ccc(Cl)cc1 | -3.6% |
| NNc1nncc2ccccc12 | 19.9% |
| CCN(CC)CCCCC(NC(=O)c1ccc([N+](=O)[O-])cc1)c1ccccc1 (stereo not drawn) | 2.61% |
| O=C(O)C1CN(Cc2ccc(-c3nc4cc(Cc5ccccc5F)ccc4s3)c(F)c2)C1 | -7.04% |
| CCCCC(CC)CNC(=N)NC(=N)NCCCCCCNC(=N)NC(=N)NCC(CC)CCCC (stereo not drawn) | 14.6% |
| Cc1noc(NS(=O)(=O)c2ccc(N)cc2)c1C | 17.6% |
| O=C1OC(c2ccc(O)cc2)(c2ccc(O)cc2)c2ccccc21 | 21.1% |
| COc1ccc2c(c1)c(CC(=O)N1CCOCC1)c(C)n2C(=O)c1ccc(Cl)cc1 | -2.18% |
| CN1CC[C@@]2(C)c3cc(O)ccc3N(C)[C@@H]12 | -2.51% |
| CN1Cc2ccccc2[C@@H]2c3cccc4[nH]cc(c34)C[C@H]21 | 16% |
| Cc1csc(NC(=O)CSc2ccc(-c3ccccc3)nn2)n1 | 0.86% |
| O=C(CCn1cnc2c(=O)[nH]cnc21)Nc1ccc(C(=O)O)cc1 | -2.26% |

Sample 2
Cell line: HEK-293T/ACE2
Concentration: 10 µM
Time: 16 h
Baseline: vehicle
| SMILES | viability [%] |
| --- | --- |
| CO[C@H]1C[C@@H]2CC[C@@H](C)[C@@](O)(O2)C(=O)C(=O)N2CCCC[C@H]2C(=O)O[C@H]([C@H](C)C[C@@H]2CC[C@@H](O)[C@H](OC)C2)CC(=O)[C@H](C)/C=C(\C)[C@@H](O)[C@@H](OC)C(=O)[C@H](C)C[C@H](C)/C=C/C=C/C=C/1C | 102 |
| CN(C)CCC(c1ccc(Cl)cc1)c1ccccn1 (stereo not drawn) | 101 |
| O=C(O)c1cc(-c2ccc(F)cc2F)ccc1O | 100 |

Sample 3
Target: RNA binding protein fox-1 homolog 2, RRM domain, GST-SBP tag (RBFOX2, Homo sapiens, UniProt O43251-10, residues 100-194)
Technique: RNA Bind-n-Seq
Molecule type: RNA
Medium: in vitro
Concentration: 365 nM
Setting: natural RNA segment, single round, ends assumed
Baseline: no-protein control
Direction: higher = stronger binding
All sequences stand within: GGGAGUUCUACAGUCCGACGAUC … UGGAAUUCUCGGGUGCCAA
Construct (chain): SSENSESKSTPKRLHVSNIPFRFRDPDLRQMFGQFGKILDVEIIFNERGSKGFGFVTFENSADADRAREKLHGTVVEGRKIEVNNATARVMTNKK
| Strand | RBNS enrichment (R) |
| --- | --- |
| UUUAUUUGUAUAAAAAUACUCAUCUUUUCAGACUUUUUUGUAAACCCCCAGUUGUGAAAACUGCAGUUUAGCAGUGACCUCAGCAACCCCUCCUUUUUAUUUUUUCCUUU | 0.47 |
| CCUUGCUGCAAACCCAUGAAGCUGGCCCUCAGCUCCCUGACCCCCUGUCCUAGGUCAUGAAGGACACUCUGCAGGGUGAAGCACCAGGGAGAGGCCUCGGCUGUCUCCUG | 0.452 |
| UCUCUGCUGCAAGUGGACAAGAGUAUUUCAGAGAUCACUGAAGCCUGAGUCCAUGCACCUGCCCCAGGAGGGGGCCAUUGUCCUAGGGACCGCCUAUCACGCCGACUGCU | 0.486 |
| UGGCGCAGCCGAGGCGCAGGCCGAGUGGGCCGCCAGGACCAAGCGAGGUGGACCCCGAAACGGACGGCCCGGAGCCCGCACCAGCCCCGCGCCUACCCGGGCCGCCCCCG | 0.224 |
| CACACACGGAGGCAUCCUACCCUUUUCUGGGGAAAGACACUGCCUGGGCUGACCCCGGUGGCGGCCCCAGCACCUCAGCCUGCACAGUGUCCCCCAGGUUCCGAAGAAGA | 0.313 |
| AAAGGAAUCUGAUUAACAUUUAUGCAUUUUAUUUUCAGAAGGACUUUCAGUUAUCCAUAAAUCUAAGCAUAACUGCUACCAUUUAUACAUGAGAAAAUGACAGAGGAACU | 0.522 |
| AGGCUCCUUUCCCUAAGGAACCAUAGAAGAGAGGAAGAAAACAAAGGGCAUGUGUGAGGGAAGCUGCUUGGGUGGGUGUUAGGGCUAUGAAAUCUUGGAUUUGGGGCUGA | 2.46 |
| CCUCCAGCCUGAGCUCUCAAGAGGUGGUAGAGCUAAGCUCUGGAGGUGGAGUCUUAGGAAGACCCAGGAGUGACUGAGCAGGACAGUAAAGGGAUUCUCCUCAGAACCCA | 0.652 |

Sample 4
Target: Replicase polyprotein 1ab, main protease (rep, Severe acute respiratory syndrome coronavirus 2, UniProt P0DTD1)
Read-out: enzyme activity
Action: inhibitor
Concentration: 20 µM
Setting: hit confirmation
| SMILES | inhibition [%] |
| --- | --- |
| O=C(Nc1ccc2c(O)cc(S(=O)(=O)O)cc2c1)Nc1ccc2c(O)cc(S(=O)(=O)O)cc2c1 | 31.8 |
| Nc1nc(-c2ccc(Cl)c(Cl)c2)c(-c2ccncc2)s1 | 76.3 |
| Oc1c(CN2CCCC2)cc(COCc2ccccc2)c2cccnc12 | -4.2 |
| Oc1cc2c(cc1O)CN(C(=S)NCCc1ccc(Cl)cc1)CCC2 | 52.5 |
| CC[C@H](CO)Nc1nc(NCc2ccc(-c3ccccn3)cc2)c2ncn(C(C)C)c2n1 | 99.9 |

Sample 5
Target: RING finger protein unkempt homolog, zinc fingers 1-6, GST-SBP tag (UNK, Homo sapiens, UniProt Q9C0B0, residues 30-357)
Technique: RNA Bind-n-Seq
Molecule type: RNA
Medium: in vitro
Concentration: not given
Setting: RNA with constant flanks, human-mouse chimeric sites, ends assumed
Baseline: input RNA pool
Direction: higher = stronger binding
All sequences stand within: GGGAGUUCUACAGUCCGACGAUC … CAACAGAGGAUUGAGCAUCA
Residues (chain): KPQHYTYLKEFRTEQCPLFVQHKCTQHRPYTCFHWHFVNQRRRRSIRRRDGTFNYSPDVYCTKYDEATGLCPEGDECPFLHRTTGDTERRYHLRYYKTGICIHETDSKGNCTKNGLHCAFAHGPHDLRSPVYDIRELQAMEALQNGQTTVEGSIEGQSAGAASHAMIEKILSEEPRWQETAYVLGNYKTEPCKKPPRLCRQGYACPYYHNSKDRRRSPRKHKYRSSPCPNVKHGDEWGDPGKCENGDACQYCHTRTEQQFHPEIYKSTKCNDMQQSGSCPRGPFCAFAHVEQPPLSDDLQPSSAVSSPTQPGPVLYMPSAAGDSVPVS
| Strand | bound/input enrichment [ratio] |
| --- | --- |
| AUGCAGUAUGAGACCAACAGCUUGGACUUCAAAGUUGGGGCAGAUGGGACAGUCUUCGCCACCCGGGAGCUGCAGGUCCCCUCCGAGCAGGUGGCGUUCACGGUGACUGCAUGGGACAGC | 0.153 |
| CUGUGUGUGCUGAAUAAAUGGCUUGUAAAGAAGUUUUCCAAGUUGUAAACCCAUGCUGUUAUUAUAGUUGCUGCAAAAUGUUCUUCCUGAUAUUGAUGUUUGUUUACAACUGAAGGUCUC | 0.191 |
| AGUGUGCAGGAAUUCAUGACCUUUACAAGUCAACUGAUUGUGGAACGCUCGGGGAAAGGCACUAGAGCUUCUGUCAAAGAACAAGAGUAUCUGUGCCAUGUCUACGUCCGGAGCGACAGU | 0.072 |
| GUUGCCAGCUUCCGGUUCCGUUGGGCUCGGUUCUCUCCUGAGCUACGUGUCUCUACGUUUUAGGUGUGCCAUCCAACAAACAUGGAUCAGGUAAUGCUGCAGUUUGUGCCCAGCCGGCAG | 0.217 |
| GUGACUGGUGUUAAGAUUUCCCCUCAGCAAAGAAGUGUAGCAGUGACCAUAAUUCCAUCUGUGGUGAGUGCCAGUCAGAUUGUGGAGCUGGUCCCAGAACUCAGUUUAGACAUGGGAACU | 0.414 |
| AAAGAGUGGAUAGAGUGUGCACACGGGAUCGGUUAUACCCGGGCGAAAAAGGAGUGCAAGAUAGAGUAUGAUGAUUUCGAAGAGUGCUUGCUUCGGUACAAAACGAUGAGGCGAAUGCAU | 1.07 |
| CUGGCACUCUAUCAGAUAUAUUAAUUUUUAAAUGUAGAUGUAAUUUUAAAAAUGAAUGGCUACUUUACACGUUUAACUAGGGUUUUACUAUAUAUGUGUGUGUAUAUAUAUAUAUAUAUA | 24.6 |
| UCAUUUUUCUCUUUUCUUUCUUUCCUUUAGGAAAAGCCUAAAGAUUAGGUUGUAAGAAAAACAGAAGCCAUGUUUCGAAGACCUGUGUUACAGGUACUUCGUCAGUUUGUAAGACAUGAG | 0.187 |

Sample 6
Target: Ras GTPase-activating protein-binding protein 1, full length (G3BP1, Homo sapiens, UniProt Q13283)
UniProt Q13283, sequence (whole entry, looked up): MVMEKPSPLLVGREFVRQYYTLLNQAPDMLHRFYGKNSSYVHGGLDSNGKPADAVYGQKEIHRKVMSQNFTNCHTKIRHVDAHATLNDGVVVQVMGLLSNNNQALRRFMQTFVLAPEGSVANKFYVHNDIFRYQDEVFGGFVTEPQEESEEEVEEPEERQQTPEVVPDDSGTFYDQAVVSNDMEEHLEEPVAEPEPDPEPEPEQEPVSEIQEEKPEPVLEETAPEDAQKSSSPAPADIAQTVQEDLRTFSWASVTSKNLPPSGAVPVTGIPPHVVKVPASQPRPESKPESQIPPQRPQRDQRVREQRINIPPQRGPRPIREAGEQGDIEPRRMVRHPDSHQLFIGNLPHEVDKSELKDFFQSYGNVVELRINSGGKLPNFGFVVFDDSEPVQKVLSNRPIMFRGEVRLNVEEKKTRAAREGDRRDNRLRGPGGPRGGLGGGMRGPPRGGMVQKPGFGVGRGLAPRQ
Technique: RNA Bind-n-Seq
Molecule type: RNA
Medium: in vitro
Concentration: 200 nM
Setting: whole 134-nt RNA, ends assumed
Together with: 150 mM KCl
Baseline: input library
Direction: higher = stronger binding
All sequences stand within: GGGAGUUCUACAGUCCGACGAUC … UGGAAUUCUCGGGUGUCAAGG
| Strand | log2 enrichment |
| --- | --- |
| UCGGAGGUGGAUUUUGUUUAUUUUUUUAGCUCAUUUCCAGGGGUGGGAAUUUUUUUUUAAUAUGUGUCAUGAAUAAAGUUGUUUUUGAAA | -0.779 |
| CCUGUGCUACACAUCGUAUGUACCGAAUCGGGGAAAAAGGGGAAAAAGGGGUUUUUGGGGAAAGUAUUAUGUUACGCCGUUCGGAUCUGC | 0.267 |
| UGGGAGGUGGAUUUUGUUUAUUUUUUUAGCUCAUUUCCAGGGGUUGGAAUUUUUUUUUAAUAUGUGUCAUGAAUAAAGUUGUUUUUGAAA | -0.335 |
| AUGUUCUUGAAUACUUAGCAAACAUACCAGCAUCCCAAAGUCACCAAGAUAAACCCUCCUACUCCAACAUCACAUGAUCUUCUAAUUCUA | -0.0074 |
| CACAGACAACACGCACCCACACAGACACAGAGGGAAAAAGUUGGGAUGGGGACAGGGUGCACAGCAGGGCGGGGUAGGACCCCAGCCCCU | 0.74 |
| CCUGUGCUACACAUCGUAUGUACCGAAUCGGGAAAAAAAGGGUUUUUUUGGGUUUUUGGGAAAGUAUUAUGUUACGCCGUUCGGAUCUGC | -1.12 |
| UUUUGAGGAAAGGAUGAAGGAGCUCAGAGAAGAGGUAAGGGUCUCCUAUCCUUCCCCUCUCCCCCAGAUUUGAGUUUUAUGUUAUGAAUC | -0.333 |
| CCUGUGCUACACAUCGUAUGUACCGAAUCGGCCCCCCCGGGGCCCCCCCGGCCCCCCCGGGAAAGUAUUAUGUUACGCCGUUCGGAUCUG | -0.358 |

For quick reference, copied from above (sample 1):
| SMILES | inhibition |
| --- | --- |
| Cc1noc(NS(=O)(=O)c2ccc(N)cc2)c1C | 17.6% |
| c1ccc(-c2n[nH]c3c2oc2ccccc23)cc1 | -5% |
| Cc1ccc(F)c(NC(=O)Nc2ccc(-c3cccc4[nH]nc(N)c34)cc2)c1 | 0.83% |
| CC(C)/N=c1\cc2n(-c3ccc(Cl)cc3)c3ccccc3nc-2cc1Nc1ccc(Cl)cc1 | -3.6% |
| COc1ccc2c(c1)c(CC(=O)N1CCOCC1)c(C)n2C(=O)c1ccc(Cl)cc1 | -2.18% |
| CC(C)NCC(O)COc1cccc2[nH]c3ccccc3c12 (stereo not drawn) | 5.15% |
| O=C(O)C1CN(Cc2ccc(-c3nc4cc(Cc5ccccc5F)ccc4s3)c(F)c2)C1 | -7.04% |
| CN1Cc2ccccc2[C@@H]2c3cccc4[nH]cc(c34)C[C@H]21 | 16% |
| CN1CC[C@@]2(C)c3cc(O)ccc3N(C)[C@@H]12 | -2.51% |
